Measured values collected from several papers.
Numbered parts are unrelated; each lists some results of a single study. Several values in a cell are separate wells, animals, samples, runs or records. ± gives the spread as reported.

Series 1
Target: C-X-C chemokine receptor type 4 (CXCR4, Homo sapiens, UniProt P61073)
Chain of UniProt P61073 (whole entry, looked up): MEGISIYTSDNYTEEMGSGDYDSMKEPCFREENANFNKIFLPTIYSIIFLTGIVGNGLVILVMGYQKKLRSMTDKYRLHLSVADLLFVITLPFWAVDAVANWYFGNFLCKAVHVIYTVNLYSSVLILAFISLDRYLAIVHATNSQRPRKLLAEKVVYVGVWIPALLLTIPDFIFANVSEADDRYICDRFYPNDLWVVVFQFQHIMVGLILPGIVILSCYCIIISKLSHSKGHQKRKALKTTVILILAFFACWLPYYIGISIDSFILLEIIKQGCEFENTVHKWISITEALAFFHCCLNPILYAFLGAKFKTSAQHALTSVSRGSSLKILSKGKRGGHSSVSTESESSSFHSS
Read-out: ligand displacement
Method: radioligand
Compound	IC50
CC(C)C[C@H](NC(=O)[C@H](CO)NC(=O)[C@@H](NC(=O)[C@@H]1CCCN1C(=O)[C@@H](N)CCCCN)C(C)C)C(=O)N[C@@H](CO)C(=O)N[C@@H](Cc1ccc(O)cc1)C(=O)NCCCC[C@@H]1NC(=O)[C@H](CCCNC(=N)N)NC(=O)[C@H](Cc2ccc(O)cc2)NC(=O)[C@@H]2CCCN2C(=O)[C@@H](CCCCN)NC(=O)[C@H](CCCCN)NC(=O)[C@H](CCCNC(=N)N)NC(=O)[C@H](Cc2ccc(O)cc2)NC(=O)[C@@H](NC(=O)[C@H](Cc2ccc3ccccc3c2)NC(=O)[C@H](CCCNC(=N)N)NC(=O)[C@@H](N)CCCNC(=N)N)CSSC[C@@H](C(=O)N[C@@H](CCCNC(=N)N)C(=O)O)NC1=O	1.36 nM and 2.22 nM
CC(C)C[C@H](NC(=O)[C@H](CO)NC(=O)[C@@H](NC(=O)[C@@H]1CCCN1C(=O)[C@@H](N)CCCCN)C(C)C)C(=O)N[C@@H](CO)C(=O)NCCCC[C@H](NC(=O)[C@@H]1CSSC[C@H](NC(=O)[C@H](Cc2ccc3ccccc3c2)NC(=O)[C@H](CCCNC(=N)N)NC(=O)[C@@H](N)CCCNC(=N)N)C(=O)N[C@@H](Cc2ccc(O)cc2)C(=O)N[C@@H](CCCNC(=N)N)C(=O)N[C@@H](CCCCN)C(=O)N[C@H](CCCCN)C(=O)N2CCC[C@H]2C(=O)N[C@@H](Cc2ccc(O)cc2)C(=O)N[C@@H](CCCNC(=N)N)C(=O)N[C@@H](CCCNC(N)=O)C(=O)N1)C(=O)O	62 nM
CC(C)C[C@H](NC(=O)[C@H](CO)NC(=O)[C@@H](NC(=O)[C@@H]1CCCN1C(=O)[C@@H](N)CCCCN)C(C)C)C(=O)N[C@@H](CO)C(=O)N[C@@H](Cc1ccc(O)cc1)C(=O)N[C@@H](CCCNC(=N)N)C(=O)NCCCC[C@H](NC(=O)[C@@H]1CSSC[C@H](NC(=O)[C@H](Cc2ccc3ccccc3c2)NC(=O)[C@H](CCCNC(=N)N)NC(=O)[C@@H](N)CCCNC(=N)N)C(=O)N[C@@H](Cc2ccc(O)cc2)C(=O)N[C@@H](CCCNC(=N)N)C(=O)N[C@@H](CCCCN)C(=O)N[C@H](CCCCN)C(=O)N2CCC[C@H]2C(=O)N[C@@H](Cc2ccc(O)cc2)C(=O)N[C@@H](CCCNC(=N)N)C(=O)N[C@@H](CCCNC(N)=O)C(=O)N1)C(=O)O	21.2 nM and 21.7 nM

Mixed results
Compound	tested on	test	test system	setting	endpoint	value
Cc1ccc(C(=O)N/N=C/c2cc(Br)ccc2OCC(=O)O)cc1			mice, PTZ-induced seizures	oral, 20 mg/kg, 24 h after PTZ	mortality	10%
C=CCCCC(C)(NC(=O)[C@H](Cc1c[nH]cn1)NC(=O)[C@@H](N)CC(=O)O)C(=O)N[C@@H](CC(N)=O)C(=O)N1CCC[C@H]1C(=O)N[C@@H](CCC(N)=O)C(=O)N[C@H](C(=O)N[C@@H](CCCNC(=N)N)C(N)=O)[C@@H](C)CC (some centres unmarked)	NIH3T3	cytotoxicity, MTT		up to 10 µM, 24 h	viability	not toxic
O=C(O)COc1ccc(Br)cc1C=NNC(=O)Cc1ccccc1 (mixture of isomers)		item: ALT	mouse, serum	oral, 100 mg/kg, 48 h, safety assessment	serum enzyme activity	35.8 ± 6.22 IU/L
CC[C@H](C)[C@@H]1NC(=O)[C@H](C(C)C)NC(=O)[C@H](Cc2ccccc2)NC(=O)[C@H](Cc2ccccc2)NC(=O)[C@@H]2CCCN2C(=O)[C@@H]2CCCN2C(=O)[C@H]([C@@H](C)CC)NC(=O)[C@H](CC(C)C)NC(=O)[C@H](CC[S+](C)[O-])NC1=O (some centres unmarked)	SK-BR-3	LDH release		400 µg/mL, 24 h	cytotoxicity	36%
O=C(O)COc1ccc(Br)cc1/C=N/NC(=O)c1ccc(Cl)cc1			male mice, pilocarpine-induced seizures	oral, 20 mg/kg, 24 h, dosed 30 min before pilocarpine, added: pilocarpine 300 mg/kg i.p.	survival	90%

Excerpt of the above (mixed results):
Compound	tested on	test	test system	setting	endpoint	value
CC[C@H](C)[C@@H]1NC(=O)[C@H](C(C)C)NC(=O)[C@H](Cc2ccccc2)NC(=O)[C@H](Cc2ccccc2)NC(=O)[C@@H]2CCCN2C(=O)[C@@H]2CCCN2C(=O)[C@H]([C@@H](C)CC)NC(=O)[C@H](CC(C)C)NC(=O)[C@H](CC[S+](C)[O-])NC1=O (some centres unmarked)	SK-BR-3	LDH release		400 µg/mL, 24 h	cytotoxicity	36%
